{"data": "Published values gathered from unrelated publications", "HLA class I histocompatibility antigen, A alpha chain allele A*24:02": "HLA class I histocompatibility antigen, A alpha chain, allele A*24:02 (Homo sapiens, UniProt P04439)", "note": "Compare with care: the assays were run in different laboratories. Several values in a cell are separate wells, animals, samples, runs or records. ± marks the error that the study gave.", "chain of UniProt Q64663 (whole entry, unmodified, looked up)": "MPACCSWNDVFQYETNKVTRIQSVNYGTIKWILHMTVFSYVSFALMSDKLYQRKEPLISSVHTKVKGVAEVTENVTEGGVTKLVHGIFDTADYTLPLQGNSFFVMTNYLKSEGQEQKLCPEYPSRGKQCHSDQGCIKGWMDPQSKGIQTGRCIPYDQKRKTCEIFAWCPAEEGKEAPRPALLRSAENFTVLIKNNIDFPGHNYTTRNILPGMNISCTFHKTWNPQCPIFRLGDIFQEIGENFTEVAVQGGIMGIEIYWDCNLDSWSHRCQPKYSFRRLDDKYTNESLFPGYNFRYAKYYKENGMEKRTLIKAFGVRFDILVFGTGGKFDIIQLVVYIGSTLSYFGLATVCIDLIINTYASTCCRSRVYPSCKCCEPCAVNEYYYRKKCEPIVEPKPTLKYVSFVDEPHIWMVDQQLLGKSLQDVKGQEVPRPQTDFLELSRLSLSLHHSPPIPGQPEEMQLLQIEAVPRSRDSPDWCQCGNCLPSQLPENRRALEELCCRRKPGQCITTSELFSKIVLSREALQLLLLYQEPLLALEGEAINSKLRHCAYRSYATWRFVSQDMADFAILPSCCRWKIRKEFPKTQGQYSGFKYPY"}
{"Substance": "Polymyxin B", "target or system": "Staphylococcus aureus", "assay": "DiSC3(5) fluorescence", "conditions": "concentration not given, 84 min", "how to read": "higher = more depolarisation", "quantity": "membrane depolarisation", "value": "437 a.u. and 493 a.u. and 523 a.u."}
{"Substance": "11-deoxycorticosterone", "target or system": "CYP11B2 (human)", "assay": "substrate binding, stopped-flow global kinetic fitting", "test system": "purified enzyme", "conditions": "model, 4-state CS, linear, added: no adrenodoxin", "quantity": "Kd", "value": "3.06 µM"}
{"Substance": "CCT4", "assay": "co-immunoprecipitation", "test system": "human RBC cytosol", "conditions": "DMTMM crosslinker, unit not given, added: Band 3 peptide 1-56 bait", "how to read": "relative to: negative control", "quantity": "co-IP enrichment", "value": 1270}
{"Substance": "GLFQWISQA", "target or system": "Jurkat T cells expressing 1G4 TCR", "assay": "NFAT-eGFP reporter, flow cytometry", "test system": "peptide", "conditions": "concentration not given, HLA-A*02:01 NY-ESO system", "quantity": "reporter activation", "value": "2.82%"}
{"Substance": "human delta-aminolevulinic acid dehydratase", "assay": "co-immunoprecipitation", "test system": "human RBC cytosol", "conditions": "DMTMM crosslinker, unit not given, added: Band 3 peptide 1-56 bait", "how to read": "relative to: negative control", "quantity": "co-IP enrichment", "value": 8130}
{"Substance": "QDEKVKESYV", "target or system": "human SCRIB PDZ3-4 tandem (MBP fusion)", "assay": "automated holdup", "test system": "peptide, crude extract", "conditions": "concentration not given, corrected by standard peak, unit not given", "how to read": "relative to: biotin control resin, higher = stronger binding", "quantity": "binding intensity", "value": 0.718}
{"Substance": "ILEAAKSIAAATSALVKAASAAQRE", "target or system": "vinculin head domain Vd1", "assay": "complex rupture, AFM single-molecule force spectroscopy", "test system": "peptide", "conditions": "double traces, C-terminal pulling, 800 nm/s", "quantity": "rupture force FWHM upper side", "value": "5.02 pN"}
{"Substance": "ALLEWVNQC", "target or system": "Jurkat T cells expressing 1G4 TCR", "assay": "NFAT-eGFP reporter, fluorescence microscopy", "test system": "peptide", "conditions": "concentration not given, HLA-A*02:01 NY-ESO system", "quantity": "reporter activation", "value": "0.15%"}
{"Substance": "BzATP", "target or system": "P2X purinoceptor 7 (P2rx7, Rattus norvegicus, UniProt Q64663)", "assay": "ion current, agonist, two-electrode voltage clamp", "test system": "Xenopus laevis oocytes", "conditions": "0.41 µM", "how to read": "relative to: highest concentration response", "quantity": "normalized current", "value": "0.06 and 0.13 and 0.08"}
{"Substance": "milbemycin oxime", "target or system": "Saccharomyces cerevisiae", "assay": "cell growth", "test system": "Pdr5 deleted, Cdr1 overexpressed", "conditions": "2^-4.381 µg/mL", "quantity": "OD600", "value": "0.967 and 0.98 and 1.02"}
{"Substance": "colistin", "target or system": "Escherichia coli", "assay": "broth microdilution", "test system": "clinical isolate RKI-No_593/16", "quantity": "MIC", "value": "≤ 0.5 µg/mL"}
{"Substance": "NLLQWITQV", "target or system": "Jurkat T cells expressing 1G4 TCR", "assay": "NFAT-eGFP reporter, fluorescence microscopy", "test system": "peptide", "conditions": "concentration not given, HLA-A*02:01 NY-ESO system", "quantity": "reporter activation", "value": "25.8%"}
{"Substance": "SEC11A", "assay": "co-immunoprecipitation", "test system": "human RBC cytosol", "conditions": "DMTMM crosslinker, unit not given, added: Band 3 peptide 1-56 bait", "how to read": "relative to: negative control", "quantity": "co-IP enrichment", "value": 9.24}
{"Substance": "GLAQWISGV", "target or system": "Jurkat T cells expressing 1G4 TCR", "assay": "NFAT-eGFP reporter, fluorescence microscopy", "test system": "peptide", "conditions": "concentration not given, HLA-A*02:01 NY-ESO system", "quantity": "reporter activation", "value": "0.0181%"}
{"Substance": "GSGAGKESYV", "target or system": "human MAGI1-2/6 PDZ construct (MBP fusion)", "assay": "surface plasmon resonance", "test system": "peptide", "conditions": "concentration not given", "how to read": "higher = stronger binding", "quantity": "normalised SPR binding response", "value": "26.6 normalised RU"}
{"Substance": "ALMTWVTQV", "target or system": "Jurkat T cells expressing 1G4 TCR", "assay": "NFAT-eGFP reporter, flow cytometry", "test system": "peptide", "conditions": "concentration not given, HLA-A*02:01 NY-ESO system", "quantity": "reporter activation", "value": "62%"}
{"Substance": "NPDALPETLV", "target or system": "human MAGI1-2/6 PDZ construct (MBP fusion)", "assay": "automated holdup", "test system": "peptide, purified PDZ protein", "conditions": "concentration not given, unit not given", "how to read": "relative to: biotin control resin, higher = stronger binding", "quantity": "binding intensity", "value": 0.182}
{"Substance": "caspofungin", "test system": "adult ICU patients, mITT, serum", "conditions": "dose not given, Baseline", "quantity": "magnesium", "value": "0.8 mmol/L"}
{"Substance": "GLGQWIPQA", "target or system": "Jurkat T cells expressing 1G4 TCR", "assay": "NFAT-eGFP reporter, fluorescence microscopy", "test system": "peptide", "conditions": "concentration not given, HLA-A*02:01 NY-ESO system", "quantity": "reporter activation", "value": "0.00314%"}
{"Substance": "human alpha-enolase", "assay": "co-immunoprecipitation", "test system": "human RBC cytosol", "conditions": "DMTMM crosslinker, unit not given, added: Band 3 peptide 1-56 bait", "how to read": "relative to: negative control", "quantity": "co-IP enrichment", "value": 488}
{"Substance": "GLLEWVSMV", "target or system": "Jurkat T cells expressing 1G4 TCR", "assay": "NFAT-eGFP reporter, flow cytometry", "test system": "peptide", "conditions": "concentration not given, HLA-A*02:01 NY-ESO system", "quantity": "reporter activation", "value": "0.24%"}
{"Substance": "epoetin alfa", "target or system": "UT7/EPO", "assay": "RT-qPCR, measured: FOS", "conditions": "concentration not given, 90 min, normalized to HPRT1", "how to read": "relative to: vehicle", "quantity": "mRNA level", "value": "11.8 fold"}
{"Substance": "MTVCNASQRQAHAQATAVSL", "target or system": "H1299 lung large cell carcinoma", "assay": "phage binding output/input", "test system": "peptide", "how to read": "relative to: control phage", "quantity": "selectivity ratio", "value": "11.3 ± 3.3"}
{"Substance": "GEMVGQARILAQATSDLVNAIKDA", "target or system": "vinculin head domain Vd1", "assay": "complex rupture, AFM single-molecule force spectroscopy", "test system": "peptide", "conditions": "single traces, N-terminal pulling, 800 nm/s", "quantity": "rupture force FWHM lower side", "value": "12.6 pN"}
{"Substance": "ACEEQNPWARYLEWLFPTETLLLEL", "assay": "ex vivo fluorescence imaging", "test system": "peptide, BALB/c mice, 4T1 tumour-bearing, kidney", "conditions": "intravenous, 5 nmol, 4 h post-injection", "how to read": "higher = more uptake", "quantity": "mean fluorescence intensity", "value": "1050 ± 144 a.u."}
{"Substance": "TASPAKETSF", "target or system": "human MAGI1-2/6 PDZ construct (MBP fusion)", "assay": "surface plasmon resonance", "test system": "peptide", "conditions": "concentration not given", "how to read": "higher = stronger binding", "quantity": "normalised SPR binding response", "value": "0 normalised RU"}
{"Substance": "cotadutide", "assay": "metabolomics, measured: hepatic arginine", "test system": "ob/ob mice on AMLN diet, NASH model, liver", "conditions": "dose not given", "quantity": "metabolite level", "value": "0.71 ± 0.14 scaled intensity"}
{"Substance": "ALLQWTDQV", "target or system": "Jurkat T cells expressing 1G4 TCR", "assay": "NFAT-eGFP reporter, fluorescence microscopy", "test system": "peptide", "conditions": "concentration not given, HLA-A*02:01 NY-ESO system", "quantity": "reporter activation", "value": "10.8%"}
{"Substance": "GSGAGICTIV", "target or system": "human MAGI1-3/6 PDZ construct (MBP fusion)", "assay": "automated holdup", "test system": "peptide, crude extract", "conditions": "concentration not given, uncorrected, unit not given", "how to read": "relative to: biotin control resin, higher = stronger binding", "quantity": "binding intensity", "value": 0.0181}
{"Substance": "human LDL receptor", "assay": "co-immunoprecipitation", "test system": "human RBC membrane", "conditions": "DMTMM crosslinker, unit not given, added: Band 3 peptide 1-56 bait", "how to read": "relative to: negative control", "quantity": "co-IP enrichment", "value": 11.5}
{"Substance": "GSGAGKETYY", "target or system": "human MAGI1-2/6 PDZ construct (MBP fusion)", "assay": "automated holdup", "test system": "peptide, purified PDZ protein", "conditions": "concentration not given, unit not given", "how to read": "relative to: biotin control resin, higher = stronger binding", "quantity": "binding intensity", "value": 0.00264}
{"Substance": "Peginesatide", "target or system": "UT7/EPO", "assay": "tyrosine phosphorylation, LC-MS/MS phosphoproteomics, trypsin, measured: SHIP2 tyrosine 1135", "conditions": "10 nM, 15 min, added: 10 U/mL EPO", "how to read": "relative to: vehicle", "quantity": "phosphorylation level", "value": "3.3 fold"}
{"Substance": "KDECVIATEV", "target or system": "human MAGI1-2/6 PDZ construct (MBP fusion)", "assay": "automated holdup", "test system": "peptide, crude extract", "conditions": "concentration not given, uncorrected, unit not given", "how to read": "relative to: biotin control resin, higher = stronger binding", "quantity": "binding intensity", "value": 0.0745}
{"Substance": "Ac-LRKLRKRLLRDWLKAFYDKVAEKLKEAF-NH2 (N-acetyl, C-amide)", "target or system": "THP-1-derived macrophages", "assay": "real-time PCR", "test system": "peptide", "conditions": "concentration not given", "how to read": "relative to: control", "quantity": "apoE mRNA level", "value": "no effect"}
{"Substance": "MQLMPFGCLL", "target or system": "HLA class I histocompatibility antigen, A alpha chain allele A*24:02", "assay": "conformational ELISA", "test system": "peptide", "conditions": "concentration not given", "how to read": "relative to: positive control peptide, direction not given", "quantity": "binding score", "value": "6.9%"}
{"Substance": "insulin degludec", "test system": "human", "conditions": "subcutaneous, 0.4 IU/kg, 1 FC level, single dose, reference formulation", "quantity": "AUClast", "value": "592 ± 89 ng·h/mL"}
{"Substance": "human HSC70", "assay": "co-immunoprecipitation", "test system": "human plasma", "conditions": "unit not given, added: Band 3 peptide 1-56 bait", "how to read": "relative to: negative control", "quantity": "co-IP enrichment", "value": 1.6}
{"Substance": "STVQLIMQL", "target or system": "HLA class I histocompatibility antigen, A alpha chain allele A*24:02", "assay": "conformational ELISA", "test system": "peptide", "conditions": "concentration not given", "how to read": "relative to: positive control peptide, direction not given", "quantity": "binding score", "value": "8.3%"}
{"Substance": "USP14", "assay": "co-immunoprecipitation", "test system": "human RBC cytosol", "conditions": "unit not given, added: Band 3 peptide 1-56 bait", "how to read": "relative to: negative control", "quantity": "co-IP enrichment", "value": 0}
{"Substance": "ACEQNPIYWARYADWLFTTPLLLLDLALLVDADEGT", "assay": "ex vivo fluorescence imaging", "test system": "peptide, BALB/c mice, 4T1 tumour-bearing", "conditions": "intravenous, 5 nmol, 24 h post-injection, background-corrected mean fluorescence", "how to read": "relative to: tumour over muscle", "quantity": "contrast index", "value": "12.8 ± 5.7"}
{"Substance": "GSGAGQITKV", "target or system": "human MAGI1-2/6 PDZ construct (MBP fusion)", "assay": "automated holdup", "test system": "peptide, crude extract", "conditions": "concentration not given, uncorrected, unit not given", "how to read": "relative to: biotin control resin, higher = stronger binding", "quantity": "binding intensity", "value": 0.215}
{"Substance": "thimet oligopeptidase", "assay": "co-immunoprecipitation", "test system": "human RBC cytosol", "conditions": "unit not given, added: Band 3 peptide 1-56 bait", "how to read": "relative to: negative control", "quantity": "co-IP enrichment", "value": 0}
